Experimental data of several laboratories.
Protocols differ between the studies behind these lines.

Compound	organism	assay	test system	conditions	MIC
CCCCCCCC(=O)NCCCC[C@H](NC(=O)CCCCCCC)C(=O)N[C@@H](CCCCNC(=O)CCCCCCC)C(=O)NCC(=O)NCC(=O)NCC(=O)N[C@@H](CS)C(=O)N[C@@H](CCCNC(=N)N)C(=O)N[C@@H](CCCCN)C(=O)N1CCC[C@H]1C(=O)N[C@@H](CS)C(=O)N[C@@H](CCCNC(=N)N)C(=O)N[C@@H](CCCCN)C(=O)N1CCC[C@H]1C(=O)N[C@@H](CS)C(=O)N[C@@H](CCCNC(=N)N)C(=O)N[C@@H](CCCCN)C(=O)N1CCC[C@H]1C(N)=O	Candida albicans	broth microdilution	SP 3903, RPMI-1640	48 h, 30 °C	8 µM
CC[C@H](C)[C@H](N)C(=O)N[C@@H](CCCNC(=N)N)C(=O)N[C@H](C(=O)N[C@@H](Cc1c[nH]c2ccccc12)C(=O)N[C@@H](Cc1ccccc1)C(=O)N[C@H](C(=O)N[C@@H](CCCCN)C(=O)N[C@H](C(=O)N[C@@H](CCCNC(=N)N)C(=O)N[C@@H](CCCCN)C(=O)N[C@@H](CCSC)C(=O)N[C@@H](CCCCN)C(=O)N[C@@H](C)C(=O)N[C@H](C(=O)N[C@@H](Cc1ccc(O)cc1)C(=O)N[C@@H](Cc1c[nH]cn1)C(N)=O)[C@@H](C)CC)C(C)C)[C@@H](C)CC)C(C)C	Listeria monocytogenes	broth dilution	KCTC 13064		50 µM
CCCCCCCCCC(=O)NCCCC[C@H](NC(=O)CCCCCCCCC)C(=O)N[C@@H](CCCCNC(=O)CCCCCCCCC)C(=O)NCC(=O)NCC(=O)NCC(=O)N[C@@H](CS)C(=O)N[C@@H](CCCNC(=N)N)C(=O)N[C@@H](CCCCN)C(=O)N1CCC[C@H]1C(=O)N[C@@H](CS)C(=O)N[C@@H](CCCNC(=N)N)C(=O)N[C@@H](CCCCN)C(=O)N1CCC[C@H]1C(N)=O	Candida albicans	broth microdilution	CGMCC 2.209, RPMI-1640	48 h, 30 °C	16 µM
CC1(C)S[C@@H]2[C@H](NC(=O)[C@H](NC(=O)C3=C(O)C(c4ccccc4F)NC3=O)c3ccccc3)C(=O)N2[C@H]1C(=O)O (stereo partly drawn)	Escherichia coli	broth microdilution	isolate IU 356 A, KPC-3, VIM-1, TEM	with: clavulanic acid 6 µg/mL	> 200 µg/mL
CC(C)CCCCCCCCC/C=C/C(=O)N[C@@H](CC(N)=O)C(=O)N[C@H]1CNC(=O)[C@@H]2CCCN2C(=O)[C@H](C(C)C)NC(=O)[C@@H](CN)NC(=O)CNC(=O)[C@H](CC(=O)O)NC(=O)CNC(=O)[C@H](CC(=O)O)NC(=O)[C@H](CC(=O)O)NC(=O)[C@H]2CCCCN2C1=O	Staphylococcus simulans	broth microdilution	22, Mueller-Hinton broth, Mg2+ 10 mg/L	16 h, 30 °C, with: Ca2+ 10 mM	1 µg/mL
O=[N+]([O-])c1ccc(C2=[N+]([O-])c3ccccc3N3CCCN=C23)cc1	Fusobacterium nucleatum				0.06 to 0.125 µg/mL
CCCCCCCC(=O)NCCCC[C@H](NC(=O)CCCCCCC)C(=O)N[C@@H](CCCCNC(=O)CCCCCCC)C(=O)NCC(=O)NCC(=O)NCC(=O)N[C@@H](CS)C(=O)N[C@@H](CCCNC(=N)N)C(=O)N[C@@H](CCCCN)C(=O)N1CCC[C@H]1C(N)=O	Candida albicans	broth microdilution	SP 3903, RPMI-1640	48 h, 30 °C	> 128 µM
CC(=O)N[C@@H](CC(C)C)C(=O)N[C@H]1CSSC[C@@H](C(=O)N2CCC[C@H]2C(N)=O)NC(=O)[C@H]([C@@H](C)O)NC(=O)[C@H](C(C)C)NC(=O)[C@H]([C@@H](C)O)NC(=O)CNC(=O)[C@H](CCCCN)NC(=O)[C@H](Cc2ccccc2)NC(=O)[C@H](Cc2ccc(O)cc2)NC(=O)[C@H](CCCCN)NC(=O)[C@H](CCC(=O)O)NC(=O)[C@H](Cc2ccccc2)NC(=O)[C@H](CCCNC(=N)N)NC(=O)[C@H](CCCCN)NC(=O)[C@H](CC(C)C)NC(=O)[C@H](CC(=O)O)NC(=O)[C@@H]2CCCN2C(=O)[C@H](CCCCN)NC(=O)[C@H](C(C)C)NC(=O)[C@H](CCCCN)NC(=O)[C@H](CCCCN)NC(=O)[C@H]([C@@H](C)O)NC1=O	Aeromonas hydrophila	broth dilution		24 h	> 40 µM
CC[C@H](C)[C@H](NC(=O)[C@H](CCCCN)NC(=O)[C@H](CCCCN)NC(=O)[C@H](Cc1ccccc1)NC(=O)[C@H](Cc1ccccc1)NC(=O)[C@H](CCCCN)NC(=O)[C@H](CCCCN)NC(=O)[C@H](Cc1ccccc1)NC(=O)[C@H](CCCNC(=N)N)NC(=O)[C@@H](N)CCCCN)C(=O)N[C@@H](CCCCN)C(=O)N[C@@H](CCCCN)C(=O)N[C@@H](CO)C(=O)N[C@H](C(=O)N[C@@H](CCCCN)C(=O)N[C@@H](CCCCN)C(=O)N[C@@H](CCCNC(=N)N)C(=O)N[C@H](C(=O)N[C@@H](CCCCN)C(=O)N[C@@H](CCCCN)C(=O)N[C@@H](CC(C)C)C(=O)N[C@@H](Cc1ccccc1)C(=O)N[C@@H](CCCCN)C(=O)N[C@@H](CCCCN)C(=O)N1CCC[C@H]1C(=O)N[C@@H](CCCNC(=N)N)C(=O)N[C@H](C(=O)N[C@H](C(=O)N1CCC[C@H]1C(=O)N[C@H](C(=O)N[C@@H](CO)C(=O)N[C@H](C(=O)N1CCC[C@H]1C(=O)N[C@@H](Cc1ccccc1)C(=O)O)[C@@H](C)CC)[C@@H](C)CC)[C@@H](C)CC)C(C)C)C(C)C)C(C)C	Klebsiella pneumoniae	CLSI agar dilution	ATCC 13883	20 h, 37 °C	16 µg/mL
CC[C@H](C)[C@H](NC(=O)[C@@H](CCCNC(=N)N)NC(=O)[C@H](CCCNC(=N)N)NC(=O)CNC(=O)[C@H](Cc1c[nH]c2ccccc12)NC(=O)[C@H](CCCNC(=N)N)NC(=O)[C@@H]1CCCN1C(=O)[C@H](CCCNC(=N)N)NC(=O)[C@@H]1CCCN1C(=O)[C@H](CC(C)C)NC(=O)[C@H](Cc1ccc(O)cc1)NC(=O)[C@@H]1CCCN1C(=O)[C@@H]1CCCN1C(=O)[C@H](CCCCN)NC(=O)[C@H](CC(=O)O)NC(=O)[C@@H](N)C(C)C)C(=O)N[C@@H](Cc1ccc(O)cc1)C(=O)N[C@@H](CC(N)=O)C(=O)N[C@H](CCCNC(=N)N)C(N)=O	Klebsiella pneumoniae	broth microdilution	DSM 681	18 h, 37 °C, 25% MHB2	2 µg/mL
C[N+]1=C2C(c3ccc([N+](=O)[O-])cc3)=[N+]([O-])c3ccccc3N2CCC1	Fusobacterium nucleatum				0.25 to 1 µg/mL
CC(C)[C@H](NC(=O)C(NC(=O)CC[C@H](N)C(=O)O)C(O)C(N)=O)C(=O)N(C)CC(=O)N[C@H](Cc1c[nH]c2ccc([N+](=O)[O-])cc12)C(=O)NC[C@@H]1NC(=O)[C@@H](Cc2c[nH]c3ccc([N+](=O)[O-])cc23)NC1=O (stereo partly drawn)	Haemophilus influenzae		MAP7 multidrug resistant	18 h, 37 °C	1.6 µM
[O-][N+]1=C(c2ccccc2)C2=NCCCN2c2ncccc21	Fusobacterium nucleatum				0.06 to 0.25 µg/mL
CN[C@H](CC(C)C)C(=O)N[C@H]1C(=O)N[C@@H](CC(N)=O)C(=O)N[C@H]2C(=O)N[C@H]3C(=O)N[C@H](C(=O)N[C@H](C(=O)NCc4cn(CCCCC(=O)N[C@H](C(=O)N[C@@H](CCN)C(=O)N[C@H]5CCNC(=O)[C@H]([C@@H](C)O)NC(=O)[C@H](CCN)NC(=O)[C@H](CCN)NC(=O)[C@H](CC(C)C)NC(=O)[C@@H](CC(C)C)NC(=O)[C@H](CCN)NC5=O)[C@@H](C)O)nn4)c4cc(O)cc(O)c4-c4cc3ccc4O)[C@H](O)c3ccc(c(Cl)c3)Oc3cc2cc(c3O[C@@H]2O[C@H](CO)[C@@H](O)[C@H](O)[C@H]2O[C@H]2C[C@](C)(N)[C@H](O)[C@H](C)O2)Oc2ccc(cc2Cl)[C@H]1O	Staphylococcus simulans	broth microdilution	22, cation-adjusted Mueller-Hinton broth		0.012 µM
CC(C)C[C@H](NC(=O)[C@H](CC(C)C)NC(=O)[C@H](CCCCN)NC(=O)CNC(=O)[C@H](CC(C)C)NC(=O)CNC(=O)[C@H](CO)NC(=O)[C@H](CC(C)C)NC(=O)[C@H](CC(C)C)NC(=O)[C@H](CO)NC(=O)[C@H](CCCCN)NC(=O)[C@H](CC(C)C)NC(=O)[C@H](CCCCN)NC(=O)[C@H](CCCCN)NC(=O)[C@H](C)NC(=O)[C@H](C)NC(=O)[C@H](C)NC(=O)CNC(=O)[C@H](CO)NC(=O)[C@H](Cc1c[nH]c2ccccc12)NC(=O)[C@@H](N)CCCCN)C(=O)O	Candida glabrata	broth microdilution	ATCC 2001	44 h, 37 °C	100 µM
CCCCCC(=O)NCCCC[C@H](NC(=O)CCCCC)C(=O)N[C@@H](CCCCNC(=O)CCCCC)C(=O)NCC(=O)NCC(=O)NCC(=O)N[C@@H](CS)C(=O)N[C@@H](CCCNC(=N)N)C(=O)N[C@@H](CCCCN)C(=O)N1CCC[C@H]1C(=O)N[C@@H](CS)C(=O)N[C@@H](CCCNC(=N)N)C(=O)N[C@@H](CCCCN)C(=O)N1CCC[C@H]1C(N)=O	Candida albicans	broth microdilution	SP 3931, RPMI-1640	48 h, 30 °C	32 µM
CC(C)CCCCCCCCC/C=C/C(=O)N[C@@H](CC(=O)O)C(=O)N[C@H]1CNC(=O)[C@@H]2CCCN2C(=O)[C@H](C(C)C)NC(=O)[C@@H](CN)NC(=O)CNC(=O)[C@H](CC(=O)O)NC(=O)CNC(=O)[C@H](CC(=O)O)NC(=O)[C@H](CC(=O)O)NC(=O)[C@H]2CCCCN2C1=O	Staphylococcus simulans	broth microdilution	22, Mueller-Hinton broth, Mg2+ 10 mg/L	16 h, 30 °C, with: Ca2+ 1.0 mM	8 µg/mL
CCCCCCCC(=O)NCCCC[C@H](NC(=O)CCCCCCC)C(=O)N[C@@H](CCCCNC(=O)CCCCCCC)C(=O)NCC(=O)NCC(=O)NCC(=O)N[C@@H](CS)C(=O)N[C@@H](CCCNC(=N)N)C(=O)N[C@@H](CCCCN)C(=O)N1CCC[C@H]1C(=O)N[C@@H](CS)C(=O)N[C@@H](CCCNC(=N)N)C(=O)N[C@@H](CCCCN)C(=O)N1CCC[C@H]1C(N)=O	Candida albicans	broth microdilution	SP 3876, RPMI-1640	48 h, 30 °C	8 µM
C=C1NC(=O)C2C[S+]([O-])CC3NC(=O)C(CSC(C)C(NC(=S)C(Cc4cnc[nH]4)NC(=O)c4csc(C(C)NC(C)=O)n4)C(=O)N[C@H](CC(C)C(=O)NC(=O)CC(C(=O)O)NC(=O)C(C)NC3=O)C(=O)N2)NC(=O)[C@@H]2CCCN2C(=O)[C@@H](CC(C)C)NC1=O (stereo partly drawn)	Candida glabrata	EUCAST broth microdilution	clinical isolate, RPMI 1640 MOPS-buffered 2% glucose	48 h, pH 7.0, 24 °C	> 32 µg/mL
CCCCCCCCCCCC(=O)NCCCC[C@H](NC(=O)CCCCCCCCCCC)C(=O)N[C@@H](CCCCNC(=O)CCCCCCCCCCC)C(=O)NCC(=O)NCC(=O)NCC(=O)N[C@@H](CS)C(=O)N[C@@H](CCCNC(=N)N)C(=O)N[C@@H](CCCCN)C(=O)N1CCC[C@H]1C(=O)N[C@@H](CS)C(=O)N[C@@H](CCCNC(=N)N)C(=O)N[C@@H](CCCCN)C(=O)N1CCC[C@H]1C(N)=O	Candida albicans	broth microdilution	14936, RPMI-1640	48 h, 30 °C	> 128 µM
CC[C@H](C)[C@H](NC(=O)CN)C(=O)NCC(=O)N[C@@H](C)C(=O)N[C@H](C(=O)N[C@@H](CC(C)C)C(=O)N[C@@H](CCCCN)C(=O)N[C@H](C(=O)N[C@@H](CC(C)C)C(=O)N[C@H](C(=O)N[C@H](C(=O)NCC(=O)N[C@@H](CC(C)C)C(=O)N1CCC[C@H]1C(=O)N[C@@H](C)C(=O)N[C@@H](CC(C)C)C(=O)N[C@H](C(=O)N[C@@H](CO)C(=O)N[C@@H](Cc1c[nH]c2ccccc12)C(=O)N[C@H](C(=O)N[C@@H](CCCCN)C(=O)N[C@@H](CCCNC(=N)N)C(=O)N[C@@H](CCCCN)C(=O)N[C@@H](CCCNC(=N)N)C(=O)N[C@@H](CCC(N)=O)C(=O)N[C@@H](CCC(N)=O)C(N)=O)[C@@H](C)CC)[C@@H](C)CC)[C@@H](C)O)[C@@H](C)O)C(C)C)C(C)C	Listeria monocytogenes	CLSI broth microdilution	KCTC 3710	18 h, 37 °C	2 µM

For quick reference, copied from above:
Compound	organism	assay	test system	conditions	MIC
CC(C)CCCCCCCCC/C=C/C(=O)N[C@@H](CC(=O)O)C(=O)N[C@H]1CNC(=O)[C@@H]2CCCN2C(=O)[C@H](C(C)C)NC(=O)[C@@H](CN)NC(=O)CNC(=O)[C@H](CC(=O)O)NC(=O)CNC(=O)[C@H](CC(=O)O)NC(=O)[C@H](CC(=O)O)NC(=O)[C@H]2CCCCN2C1=O	Staphylococcus simulans	broth microdilution	22, Mueller-Hinton broth, Mg2+ 10 mg/L	16 h, 30 °C, with: Ca2+ 1.0 mM	8 µg/mL
